{"data": "Assay results pooled from the literature", "note": "Parts stem from different laboratories: compare values within a part only."}
{"data": "Set 1", "target": "RING finger protein unkempt homolog, zinc fingers 1-6, SBP tag (UNK, Homo sapiens, UniProt Q9C0B0, residues 30-357)", "method": "RNA Bind-n-Seq", "form": "RNA", "matrix": "in vitro", "concentration": "100 nM", "setting": "RNA with constant flanks, vertebrate orthologous sites, ends assumed", "baseline": "input RNA pool", "reading": "higher = stronger binding", "UniProt Q9C0B0, sequence (30-357, looked up)": "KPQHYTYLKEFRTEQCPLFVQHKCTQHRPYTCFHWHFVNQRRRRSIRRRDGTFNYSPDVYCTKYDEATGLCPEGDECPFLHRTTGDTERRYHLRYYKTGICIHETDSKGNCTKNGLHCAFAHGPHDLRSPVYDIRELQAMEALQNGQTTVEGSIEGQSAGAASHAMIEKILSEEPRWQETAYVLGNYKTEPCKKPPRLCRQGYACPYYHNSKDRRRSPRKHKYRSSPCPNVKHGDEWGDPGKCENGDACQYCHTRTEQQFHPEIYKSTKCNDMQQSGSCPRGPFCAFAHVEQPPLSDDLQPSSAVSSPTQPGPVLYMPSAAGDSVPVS"}
{"Strand": "GGGAGUUCUACAGUCCGACGAUCGAUUUAGAUAUUCUUUUUAUUCUUUUUCUUUUCCCUCAAUCCUUUUUUAUUUUUAAAAAAUAGUUCUUUUGUAAUGUGGUGUUCAAAAUGGAAAUGAAAACUGGCAUCCCAUCUCUUUAACAACAGAGGAUUGAGCAUCA", "bound/input enrichment": "4.78 ratio"}
{"Strand": "GGGAGUUCUACAGUCCGACGAUCCUACUAUAAACAACUCAGGGCAGUACUCUCGAUAUCCUUACAGUAACCUGAAUCAGGGAUUAGUUAACAAUACAGGGAUGAAUCAGAAUUUAGGCCUUACAAAUAAUACUCCAAUGAAUCCAACAGAGGAUUGAGCAUCA", "bound/input enrichment": "1.4 ratio"}
{"Strand": "GGGAGUUCUACAGUCCGACGAUCGUGCAAGGAGAUUAUCCCAACUAGUGAAUUUAUUAACAGUAAGUUGACAGCAAAAGCAAAUAGGCAACUUCAAGAUCCUUUAGUAAUCAUGACAGGAAACAUCCCAACGUGGCUCACUGACAACAGAGGAUUGAGCAUCA", "bound/input enrichment": "1.24 ratio"}
{"Strand": "GGGAGUUCUACAGUCCGACGAUCUCAGGUGUCCCCAUGGGGCACUGUUGGCCCCUUAGCAUCGUUUGAUUUGUGACCUUGACAUAAUAGAUAGGCUUGUGAUUUUUUUAAUUUAAAGAUAUUAAAACUUAAUUCACUAAAAUUCAACAGAGGAUUGAGCAUCA", "bound/input enrichment": "0.486 ratio"}
{"data": "Set 2", "target": "Protein C-ets-1 (ETS1, Homo sapiens, UniProt P14921, residues 1-441, full length assumed)", "method": "protein-binding microarray", "form": "double-stranded DNA, one strand shown", "matrix": "in vitro", "concentration": "not given", "setting": "k-mer, scored over probes, only values ≥0.25", "reading": "higher = stronger binding", "Residues (chain)": "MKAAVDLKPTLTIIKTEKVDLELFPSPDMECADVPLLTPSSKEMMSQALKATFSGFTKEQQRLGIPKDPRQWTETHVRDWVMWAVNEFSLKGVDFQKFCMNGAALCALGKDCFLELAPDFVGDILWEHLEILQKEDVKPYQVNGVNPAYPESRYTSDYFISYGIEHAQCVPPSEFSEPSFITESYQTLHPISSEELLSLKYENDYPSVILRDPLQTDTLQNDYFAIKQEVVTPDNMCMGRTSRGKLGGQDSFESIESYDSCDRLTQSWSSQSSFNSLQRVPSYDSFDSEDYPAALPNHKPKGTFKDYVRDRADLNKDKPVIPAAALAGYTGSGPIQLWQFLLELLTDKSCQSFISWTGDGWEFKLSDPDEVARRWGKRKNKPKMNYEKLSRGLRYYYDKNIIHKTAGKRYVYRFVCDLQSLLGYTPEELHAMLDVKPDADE"}
{"Strand": "CATCCGTA", "E-score": 0.412}
{"Strand": "TCCTGTCA", "E-score": 0.416}
{"Strand": "TCCGGCCA", "E-score": 0.448}
{"Strand": "GACCATCA", "E-score": 0.265}
{"Strand": "GAAATGGA", "E-score": 0.3}
{"data": "Set 3", "target": "Sal-like protein 4, full length isoform A (SALL4, Homo sapiens, UniProt Q9UJQ4, residues 1-1053)", "method": "universal PBM", "form": "double-stranded DNA, one strand shown", "matrix": "in vitro", "concentration": "600 nM", "setting": "8-mer, flanks averaged, mean of replicates", "reading": "higher = stronger binding", "UniProt Q9UJQ4, sequence (whole entry, looked up)": "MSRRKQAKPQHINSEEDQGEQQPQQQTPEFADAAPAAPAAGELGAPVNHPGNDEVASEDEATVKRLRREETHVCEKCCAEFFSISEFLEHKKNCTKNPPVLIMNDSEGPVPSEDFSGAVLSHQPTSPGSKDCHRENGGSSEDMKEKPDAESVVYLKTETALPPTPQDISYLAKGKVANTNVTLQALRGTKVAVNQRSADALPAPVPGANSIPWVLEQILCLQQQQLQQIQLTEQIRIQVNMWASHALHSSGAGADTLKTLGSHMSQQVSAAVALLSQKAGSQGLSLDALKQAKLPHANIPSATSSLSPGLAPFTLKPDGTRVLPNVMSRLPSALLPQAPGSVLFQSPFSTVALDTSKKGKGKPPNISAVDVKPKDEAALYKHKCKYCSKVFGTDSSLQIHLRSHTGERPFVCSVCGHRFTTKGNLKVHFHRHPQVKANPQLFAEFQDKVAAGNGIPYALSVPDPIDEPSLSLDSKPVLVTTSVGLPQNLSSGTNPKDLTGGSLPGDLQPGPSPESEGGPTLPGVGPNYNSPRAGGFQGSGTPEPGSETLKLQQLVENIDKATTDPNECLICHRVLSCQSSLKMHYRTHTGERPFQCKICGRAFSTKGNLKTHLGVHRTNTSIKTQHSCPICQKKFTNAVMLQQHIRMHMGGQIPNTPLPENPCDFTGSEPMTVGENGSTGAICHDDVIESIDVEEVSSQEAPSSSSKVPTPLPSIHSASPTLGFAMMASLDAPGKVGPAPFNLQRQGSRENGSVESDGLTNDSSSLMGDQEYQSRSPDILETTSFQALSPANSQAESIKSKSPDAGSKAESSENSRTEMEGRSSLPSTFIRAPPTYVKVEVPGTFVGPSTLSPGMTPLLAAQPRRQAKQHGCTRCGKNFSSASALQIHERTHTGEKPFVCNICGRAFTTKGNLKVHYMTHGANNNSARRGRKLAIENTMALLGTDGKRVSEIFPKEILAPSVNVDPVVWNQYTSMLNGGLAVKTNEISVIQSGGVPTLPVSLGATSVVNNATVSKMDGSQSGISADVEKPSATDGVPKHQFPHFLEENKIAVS"}
{"Strand": "CCCGCGAA", "E-score": -0.0916}
{"Strand": "CTTGGCCA", "E-score": -0.194}
{"Strand": "ATAGAGGA", "E-score": 0.0385}
{"Strand": "TAGACCGA", "E-score": -0.06}
{"Strand": "ACCTGGCC", "E-score": -0.321}
{"Strand": "GATATGCC", "E-score": -0.0597}
{"data": "Further values, each from its own experiment"}
{"Molecule": "PhoQ, residues 284 288 289 292 302 303 SLANKL", "target": "PhoP, residues 12 14 15 18 19 LHTVM (Escherichia coli, UniProt P23836)", "test": "Sort-seq, refers to: YFP reporter", "test system": "E. coli", "setting": "PhoQ-PhoP variant library, together with: 10 µM Mg2+", "scale": "baseline: high Mg2+ state, higher = stronger signaling", "measurement": "fold induction", "result": 11.2}
{"note": "Excerpt of the above (set 2):"}
{"Strand": "TCCTGTCA", "E-score": 0.416}
